Assay results pooled from the literature.
A part holds a random share of what one study measured.

Study 1
Target: Interferon regulatory factor 5, full length, phosphomimetic (IRF5, Homo sapiens, UniProt Q13568-2, residues 1-514, S451D/S453D/S456D/S462D)
Technique: protein-binding microarray
Molecule type: double-stranded DNA, one strand shown
Medium: in vitro
Tested at: 940 nM top
Setting: 60-bp whole probe
Added: salmon DNA 0.4 mg/ml
Reference: random background probes
Reading: higher = stronger binding
Shared flanks, not repeated: GCCTAGCAC … GTCTTGATTCGCTTGACGCTGCTG
Oligonucleotide | fitted relative affinity [z-score]
TCCTGTATGGATGTGTTTTAGTGCTAG | 0.206
TCACATTTCTGTTTTTGACTGTGCTAG | 0.99
TTAGATTTCGGGTATCGAATAGTGCTA | 1.66
TTAGGTCTCGGTATCGGGTAGTGCTAG | 5.53
TCATTTTTACTTCGGGTACTGTGCTAG | 0.945
AATTAAATGATATATATCCATGTGCTA | -0.16
TTGGGTTTCCTACTGCTTTAGTGCTAG | 0.668
TTAGGTATCGGGACTGGGGTAGTGCTA | 4.06
TTAGACTTCAGACTGGATTAGTGCTAG | -0.645
TTAGGTTTCTTACTGCTTTAGTGCTAG | 1.94
TTAGATTTCGGGAATCGATTAGTGCTA | 0.727
TTGTTTTTCATCATTGCCTAGTGCTAG | 1.39
CTGCCTTCAGAGCTGTCTGTGTGCTAG | -0.22
TTAGATTTCCTTTTCCTTTAGTGCTAG | 0.886
TTAGATCTCAGTATGGATTAGTGCTAG | 0.13
TCAGCTTTGCAGATAAAACTGTGCTAG | 0.213
GACGGACTGGGGACAGGGGACGTGCTA | 0.129
GACGGTATCCCTATCCTGACGTGCTAG | 0.643
TCATGTCTGTTTCCTCTTACTGTGCTA | 1.82
TCAGATTTCAGTTTCGATTAGTGCTAG | 9.5

Study 2
Target: RNA binding protein fox-1 homolog 2, RRM domain, GST-SBP tag (RBFOX2, Homo sapiens, UniProt O43251-10, residues 100-194)
Technique: RNA Bind-n-Seq
Molecule type: RNA
Medium: in vitro
Tested at: 365 nM
Setting: natural RNA segment, single round, ends assumed
Reference: no-protein control
Reading: higher = stronger binding
Construct (chain): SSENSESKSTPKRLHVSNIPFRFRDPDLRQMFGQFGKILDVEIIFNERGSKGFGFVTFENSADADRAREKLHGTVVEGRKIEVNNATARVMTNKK
Oligonucleotide | RBNS enrichment (R)
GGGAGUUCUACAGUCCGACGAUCGUGUCGCCCUUCAGGAACUCAGAACCCGGGUGUCAGCUCUUAACAUCUCUAAGCCUUUUAAUAAAACUGUACUGAAGUUUUUAUCAGCUAAGAGUCAGUUCUUCAAUUCUUGGAAUUCUCGGGUGCCAA | 0.343
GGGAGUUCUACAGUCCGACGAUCUUCAGUAAAGAGCUACAGAACAUGAGUACAUUGUUAUACCACAGAUUUUUCUUGCAUUAGGGCACAGUGUUAAAUUUUUUGGAGGUAAAUAUACUAUUUAUAAUCACUAUUGGAAUUCUCGGGUGCCAA | 0.79
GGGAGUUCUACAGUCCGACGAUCUUAAUAAAUACUUAUUAAAAUGCUUAUUCUAAAGUACUAUGAUUUUAGUAAUGCUAUCAGUCCUCCAAGUGUUAGGGACAAUCUUAGAAUUCUCAUGUAAUGAGAAGCAAUGGAAUUCUCGGGUGCCAA | 0.872
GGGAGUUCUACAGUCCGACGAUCAACCUGUAGUGAAGUAGACUUGGCCGUCCCUGGACAGUGAGGUCAGAUGUGAAUACAUAUUGUAAGAGCACGUUGAAUAGUGUGCAUUACUGUGGGGAAACACCGAAACUUGGAAUUCUCGGGUGCCAA | 0.256
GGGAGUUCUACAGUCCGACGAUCAAGGCUCCUAGUCAAAUGAUCCAAACCUUUAACAUCGUUUCUGAUGGUACCCAAGUUCACAUUUUAUUUUUAUUUUUUAUCAAAUUCUUAGAAAGAGUCAUAAGAAAAAAUGGAAUUCUCGGGUGCCAA | 0.8
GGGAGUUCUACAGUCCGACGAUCUCAAUGUGCCUUUGCAUAAAGUUCAUUAAAUAAAUAUUGAUGUGGUAUAAAUGCCCAUCAGAUAUGCUAAACUUGGUUUUCAGUUGAAUGAAGUAGAGAAUGUCCUCAGGUGGAAUUCUCGGGUGCCAA | 0.506
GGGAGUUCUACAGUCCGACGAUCAGGGUGGCCUUGAAGAGGCCAAAGGAAUGUCCAUUUGCUGAGUUUCCCUUCCUUAUGUCUCCAGUCUGGUGCCAGGUAGUGGAGUAAAAAAGGAGACAGUUUAUUUUUUUUGGAAUUCUCGGGUGCCAA | 0.779
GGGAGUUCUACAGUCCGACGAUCAGGUGCUAUAGGAAACAUAGAUCCAGCCAGGGGCUUCCCUAAAGCAGUGCAGCACCGGCCCAGGGCAUCACUAGACAGGCCCUAAUUAAGUUUUUUUUAAAAAGCCUGUGUGGAAUUCUCGGGUGCCAA | 0.395
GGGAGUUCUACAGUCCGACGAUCAAAGUAUAACAGGAUUUCUGUAUACUGUGCAAUCAGUUCUUUGAAAAAAAAGUCAAAAGAUAGAGAAUACAAGAAAAGUUUUUGGGAUAUAAUUUGAAUGACUGUGAAAAUGGAAUUCUCGGGUGCCAA | 0.644
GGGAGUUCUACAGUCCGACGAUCACCUCACAUUUCUAAAAGACCUCCUUCCUCAAGAGACAAAUGAAGGCAAAAUAAUCACACUCAGCAAACAGGAGAUGUUCUGCUCAGAUAUGAAUUUUCAAUGCAGCAAAUGGAAUUCUCGGGUGCCAA | 0.394
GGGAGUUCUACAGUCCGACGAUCUUGAGUCAGUCCUCUUAGGCUGCACCUCCAGCCUCUGCAGAUCCCCCCUCAUUUCCCAUGGAUGGUGGGACCCCAUUAUUCUCUCAUCUCGGCAUUCAGGGAACAGUUUCUGGAAUUCUCGGGUGCCAA | 0.327
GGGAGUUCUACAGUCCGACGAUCCUGUUGGAUCAACAAAUAAAGGUUACAGUUUUGUAAGAGAAGUGAUUUGAAUACAUUUUUCUGGAACUAUUCAUAAUAUGAAGUUUUCCUAGAACCACUGAGUUUCUAGUUGGAAUUCUCGGGUGCCAA | 0.325

Study 3
Target: Sal-like protein 4, full length isoform B (SALL4, Homo sapiens, UniProt Q9UJQ4-2, residues 1-616)
Technique: universal PBM
Molecule type: double-stranded DNA, one strand shown
Medium: in vitro
Tested at: not given
Setting: 8-mer, flanks averaged, mean of replicates
Reading: higher = stronger binding
Construct (chain): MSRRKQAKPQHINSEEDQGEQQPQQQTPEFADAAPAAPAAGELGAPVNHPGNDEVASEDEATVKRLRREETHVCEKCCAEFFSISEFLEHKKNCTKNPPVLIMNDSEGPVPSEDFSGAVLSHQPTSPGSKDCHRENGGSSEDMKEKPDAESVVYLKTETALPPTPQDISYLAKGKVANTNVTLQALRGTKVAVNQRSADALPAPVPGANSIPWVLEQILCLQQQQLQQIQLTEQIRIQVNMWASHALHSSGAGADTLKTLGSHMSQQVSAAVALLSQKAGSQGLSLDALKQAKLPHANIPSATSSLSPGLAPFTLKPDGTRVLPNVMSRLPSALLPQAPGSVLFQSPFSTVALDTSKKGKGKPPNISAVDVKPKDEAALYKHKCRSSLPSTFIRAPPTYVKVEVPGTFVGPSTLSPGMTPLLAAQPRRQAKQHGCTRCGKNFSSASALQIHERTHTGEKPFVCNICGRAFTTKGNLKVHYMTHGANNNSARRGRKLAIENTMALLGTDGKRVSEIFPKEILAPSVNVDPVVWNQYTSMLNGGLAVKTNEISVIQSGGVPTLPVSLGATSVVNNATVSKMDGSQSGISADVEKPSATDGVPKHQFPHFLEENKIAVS
Oligonucleotide | E-score
AGCTGCGC | -0.264
AAACCTTA | 0.191
ACTCGTGC | -0.143
AGACCTGG | -0.226
GGCGGCGA | -0.348
CGCGTTAA | -0.16
GTCTACGA | -0.12
GGAGAGGA | -0.269
AGATTACG | 0.0588
TAAATAAA | 0.346
AAACTTTA | 0.23
GCGATAAC | 0.0727
CACATACA | 0.21
ATGAAAAC | 0.327
CGTTTACC | 0.0345
CTAACCAA | 0.0605
ATCCTCGG | -0.148
AATTAATA | 0.482
ACAGGGGG | -0.221
GCTACTAA | 0.064
AGCCAAAA | 0.198
ATATACGC | 0.144
AAGAACAA | 0.265
GGTCTCAC | -0.0416
GATCGGAA | 0.0259

Study 4
Target: Phosphate system positive regulatory protein PHO4, full length, GST-tagged (PHO4, Saccharomyces cerevisiae, UniProt P07270, residues 1-312)
Technique: competition protein-binding microarray
Molecule type: double-stranded DNA, one strand shown
Medium: in vitro
Tested at: 2 µM
Setting: whole 60-bp probe, lowest competitor level
Added: Cbf1 competitor, 0.05 µM
Reading: higher = stronger binding
Construct (chain): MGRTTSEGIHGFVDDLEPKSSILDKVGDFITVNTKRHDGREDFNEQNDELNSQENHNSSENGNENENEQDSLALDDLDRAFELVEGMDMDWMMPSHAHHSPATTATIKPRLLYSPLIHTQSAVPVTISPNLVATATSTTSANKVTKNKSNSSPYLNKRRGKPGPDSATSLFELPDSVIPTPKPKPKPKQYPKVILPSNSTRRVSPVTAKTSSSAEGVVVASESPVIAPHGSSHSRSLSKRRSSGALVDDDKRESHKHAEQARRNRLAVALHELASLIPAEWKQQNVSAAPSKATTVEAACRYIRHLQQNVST
Oligonucleotide | fluorescence intensity
CGTCCTAGTGATTGTTATGTGGGTGCCATGAGGAAGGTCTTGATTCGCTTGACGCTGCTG | 6680 a.u.
ACCTTGGCGCATTATCATGTTTGTGATGTCATCCAGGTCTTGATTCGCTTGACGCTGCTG | 4840 a.u.
CTCACAGATCTTCAACACGTGAAGATCGGTTGCATTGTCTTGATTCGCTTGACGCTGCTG | 13100 a.u.
AAATTACTAAGTTTTCACGTGTTATACCCCGTATGAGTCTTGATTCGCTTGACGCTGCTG | 12300 a.u.
TAGCAGGGGGATGAACATGTGAACATGTTGCAACAAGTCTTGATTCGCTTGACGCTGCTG | 8250 a.u.
TGCGCAACAACTTGTCACACAACTTTATGTCTAGAAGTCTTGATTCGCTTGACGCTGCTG | 3550 a.u.
TGTTAATTAAACCATCACGGCTCATTCATTTGAGTTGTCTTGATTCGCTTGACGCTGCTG | 4500 a.u.
CTTTGTCTTGAAATGCGCGTGTCGGTAAAATATTGTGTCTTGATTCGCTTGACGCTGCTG | 10100 a.u.
CGGGGTTAAGTTTGAATGGTGGGTGGCTTGCAGCAGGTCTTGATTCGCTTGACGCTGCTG | 5000 a.u.
CGCGGAATGACTGGACCCGTGGGTAATCGCAGGGGAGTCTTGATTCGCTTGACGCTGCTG | 8290 a.u.
TGGTGGTAATTTTGGAACGTGCAAAACCTCTGGTATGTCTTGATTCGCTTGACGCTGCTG | 11800 a.u.
CTAGTACAGTTCATGATGGTGTGCCATCTGTACAATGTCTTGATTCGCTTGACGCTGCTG | 5570 a.u.
AGTGTCTCCTCAGACGACGTGTCGGTTTTGTATATCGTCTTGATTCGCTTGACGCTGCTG | 6410 a.u.
CTAACGAAGGTTTGGCAAGTGGGTGACAAGCCAAGTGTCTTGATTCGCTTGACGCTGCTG | 3810 a.u.
GCTTTCGTACTGCTCCAGGTGTGGCTTGATGTCCTAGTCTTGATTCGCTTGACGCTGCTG | 4000 a.u.
TTCGAAAAGATTCACCACGTTTCCGTCGTTATCAGCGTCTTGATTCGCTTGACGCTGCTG | 10600 a.u.

Some of these lines once more (study 3):
Oligonucleotide | E-score
GATCGGAA | 0.0259
GCTACTAA | 0.064
GGCGGCGA | -0.348
GTCTACGA | -0.12
CACATACA | 0.21
ATATACGC | 0.144
AGCTGCGC | -0.264
ATCCTCGG | -0.148
